Assay results from different studies.
± gives the spread as reported.
HLA class I histocompatibility antigen, A alpha chain allele A*02:01: HLA class I histocompatibility antigen, A alpha chain, allele A*02:01 (Homo sapiens, UniProt P04439)
HLA class I histocompatibility antigen, A alpha chain allele A*24:02: HLA class I histocompatibility antigen, A alpha chain, allele A*24:02 (Homo sapiens, UniProt P04439)
Tubulin alpha-1B chain/TUBB2B: Tubulin alpha-1B chain/TUBB2B (Bos taurus, UniProt P81947+Q6B856)
UniProt Q6B856, sequence (whole entry, looked up): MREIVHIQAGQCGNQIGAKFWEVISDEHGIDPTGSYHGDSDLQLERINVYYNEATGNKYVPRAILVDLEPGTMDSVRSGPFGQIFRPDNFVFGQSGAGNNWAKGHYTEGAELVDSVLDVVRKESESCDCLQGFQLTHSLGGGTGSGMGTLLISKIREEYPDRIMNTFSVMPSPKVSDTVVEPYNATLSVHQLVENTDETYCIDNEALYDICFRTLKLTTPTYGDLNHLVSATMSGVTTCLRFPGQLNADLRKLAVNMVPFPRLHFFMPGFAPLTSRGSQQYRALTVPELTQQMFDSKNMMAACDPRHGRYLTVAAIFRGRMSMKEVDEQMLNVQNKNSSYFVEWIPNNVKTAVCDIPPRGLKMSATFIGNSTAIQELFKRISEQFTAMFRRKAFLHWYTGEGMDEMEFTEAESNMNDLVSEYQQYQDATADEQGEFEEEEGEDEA
UniProt P81947, sequence (whole entry, looked up): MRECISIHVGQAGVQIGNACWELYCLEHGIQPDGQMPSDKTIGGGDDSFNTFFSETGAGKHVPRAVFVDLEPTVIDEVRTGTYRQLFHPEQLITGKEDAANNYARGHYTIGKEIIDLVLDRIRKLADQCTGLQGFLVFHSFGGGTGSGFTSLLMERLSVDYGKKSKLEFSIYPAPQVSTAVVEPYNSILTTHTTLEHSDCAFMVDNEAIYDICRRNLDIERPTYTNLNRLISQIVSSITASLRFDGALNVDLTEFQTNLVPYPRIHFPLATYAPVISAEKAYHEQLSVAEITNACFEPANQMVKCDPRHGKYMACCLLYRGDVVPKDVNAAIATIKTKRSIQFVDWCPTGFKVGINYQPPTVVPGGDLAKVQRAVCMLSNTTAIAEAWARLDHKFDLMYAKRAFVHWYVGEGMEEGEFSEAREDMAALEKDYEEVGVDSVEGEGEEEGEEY
UniProt Q13258, sequence (whole entry, looked up): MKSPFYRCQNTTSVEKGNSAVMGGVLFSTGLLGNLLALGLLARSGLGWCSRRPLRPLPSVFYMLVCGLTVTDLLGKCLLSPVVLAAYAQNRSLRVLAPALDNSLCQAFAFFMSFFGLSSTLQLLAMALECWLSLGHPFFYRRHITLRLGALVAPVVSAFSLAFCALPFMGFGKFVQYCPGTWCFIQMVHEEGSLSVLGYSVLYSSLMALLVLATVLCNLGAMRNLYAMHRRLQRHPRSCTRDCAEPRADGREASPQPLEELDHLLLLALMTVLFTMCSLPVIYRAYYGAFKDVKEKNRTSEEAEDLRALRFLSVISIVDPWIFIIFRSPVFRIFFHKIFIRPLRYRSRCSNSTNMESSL
UniProt P07197, sequence (whole entry, looked up): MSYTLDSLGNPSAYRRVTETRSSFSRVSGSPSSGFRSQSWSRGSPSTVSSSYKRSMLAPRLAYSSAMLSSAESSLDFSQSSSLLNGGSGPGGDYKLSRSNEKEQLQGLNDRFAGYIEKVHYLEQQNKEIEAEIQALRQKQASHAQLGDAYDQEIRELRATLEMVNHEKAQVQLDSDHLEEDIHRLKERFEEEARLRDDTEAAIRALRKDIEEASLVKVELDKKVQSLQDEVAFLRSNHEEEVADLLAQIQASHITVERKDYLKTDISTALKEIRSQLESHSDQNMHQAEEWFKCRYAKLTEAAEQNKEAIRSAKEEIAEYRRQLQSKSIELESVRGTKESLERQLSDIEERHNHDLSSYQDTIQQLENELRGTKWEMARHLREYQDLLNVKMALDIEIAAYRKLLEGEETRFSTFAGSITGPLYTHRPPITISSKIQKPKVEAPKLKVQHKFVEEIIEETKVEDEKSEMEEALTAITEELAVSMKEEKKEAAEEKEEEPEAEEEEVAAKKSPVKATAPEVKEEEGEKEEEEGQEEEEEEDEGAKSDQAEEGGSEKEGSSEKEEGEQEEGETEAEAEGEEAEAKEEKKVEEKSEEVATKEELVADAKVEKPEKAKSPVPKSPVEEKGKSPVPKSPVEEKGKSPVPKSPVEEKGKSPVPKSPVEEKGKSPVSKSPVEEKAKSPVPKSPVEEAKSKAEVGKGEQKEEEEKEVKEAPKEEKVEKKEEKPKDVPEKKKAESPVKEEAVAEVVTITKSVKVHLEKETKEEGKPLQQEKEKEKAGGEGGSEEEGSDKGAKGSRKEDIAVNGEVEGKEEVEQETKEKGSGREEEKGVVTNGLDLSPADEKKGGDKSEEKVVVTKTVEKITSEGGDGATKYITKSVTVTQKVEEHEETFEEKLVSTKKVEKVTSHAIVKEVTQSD
UniProt O15244, sequence (whole entry, looked up): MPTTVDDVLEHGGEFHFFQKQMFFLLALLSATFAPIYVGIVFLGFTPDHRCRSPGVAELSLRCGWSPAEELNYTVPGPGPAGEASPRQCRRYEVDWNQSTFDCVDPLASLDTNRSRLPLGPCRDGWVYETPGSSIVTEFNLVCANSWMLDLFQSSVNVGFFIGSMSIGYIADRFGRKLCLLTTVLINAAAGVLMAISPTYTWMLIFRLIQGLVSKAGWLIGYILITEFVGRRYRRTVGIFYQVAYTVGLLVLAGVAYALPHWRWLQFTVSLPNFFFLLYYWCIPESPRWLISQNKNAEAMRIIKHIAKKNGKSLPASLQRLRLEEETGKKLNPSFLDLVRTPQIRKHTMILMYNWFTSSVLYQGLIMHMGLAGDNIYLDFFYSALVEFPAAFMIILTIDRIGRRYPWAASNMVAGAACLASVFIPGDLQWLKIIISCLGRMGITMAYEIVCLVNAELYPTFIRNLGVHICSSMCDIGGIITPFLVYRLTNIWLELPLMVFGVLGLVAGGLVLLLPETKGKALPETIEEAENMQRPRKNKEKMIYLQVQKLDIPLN
UniProt P97612, sequence (whole entry, looked up): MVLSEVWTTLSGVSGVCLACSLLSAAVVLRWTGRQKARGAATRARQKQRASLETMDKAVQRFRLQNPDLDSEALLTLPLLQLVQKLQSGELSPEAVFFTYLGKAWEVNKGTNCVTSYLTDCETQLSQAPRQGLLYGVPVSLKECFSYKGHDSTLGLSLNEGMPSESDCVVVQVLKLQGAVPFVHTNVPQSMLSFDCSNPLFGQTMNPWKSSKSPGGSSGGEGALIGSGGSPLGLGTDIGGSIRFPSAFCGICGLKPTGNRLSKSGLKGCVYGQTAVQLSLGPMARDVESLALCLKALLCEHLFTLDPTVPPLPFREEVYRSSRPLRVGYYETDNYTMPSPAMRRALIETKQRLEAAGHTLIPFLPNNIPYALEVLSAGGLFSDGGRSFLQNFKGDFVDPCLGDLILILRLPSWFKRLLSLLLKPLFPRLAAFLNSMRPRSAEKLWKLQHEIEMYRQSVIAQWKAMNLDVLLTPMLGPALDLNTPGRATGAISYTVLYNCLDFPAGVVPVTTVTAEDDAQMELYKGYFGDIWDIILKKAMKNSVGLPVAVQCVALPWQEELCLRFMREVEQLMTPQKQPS
UniProt P52699, sequence (whole entry, looked up): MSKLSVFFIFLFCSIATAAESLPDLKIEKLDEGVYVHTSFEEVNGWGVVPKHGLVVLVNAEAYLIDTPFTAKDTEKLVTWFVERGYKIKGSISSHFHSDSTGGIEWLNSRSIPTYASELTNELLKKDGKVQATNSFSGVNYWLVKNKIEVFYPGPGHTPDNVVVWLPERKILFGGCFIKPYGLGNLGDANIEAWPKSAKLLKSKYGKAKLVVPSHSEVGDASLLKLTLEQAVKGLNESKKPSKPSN
UniProt P56494, sequence (whole entry, looked up): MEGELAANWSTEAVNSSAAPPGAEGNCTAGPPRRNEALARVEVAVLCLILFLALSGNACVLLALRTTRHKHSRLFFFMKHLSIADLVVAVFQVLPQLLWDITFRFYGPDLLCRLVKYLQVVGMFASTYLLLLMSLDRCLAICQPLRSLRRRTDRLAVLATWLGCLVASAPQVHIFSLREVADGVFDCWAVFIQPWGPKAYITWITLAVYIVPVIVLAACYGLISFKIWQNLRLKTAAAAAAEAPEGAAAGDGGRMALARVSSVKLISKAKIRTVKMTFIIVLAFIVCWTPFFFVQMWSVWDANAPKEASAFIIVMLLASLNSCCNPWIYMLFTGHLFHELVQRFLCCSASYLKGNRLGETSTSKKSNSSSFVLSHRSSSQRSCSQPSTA
UniProt P56817, sequence (whole entry, looked up): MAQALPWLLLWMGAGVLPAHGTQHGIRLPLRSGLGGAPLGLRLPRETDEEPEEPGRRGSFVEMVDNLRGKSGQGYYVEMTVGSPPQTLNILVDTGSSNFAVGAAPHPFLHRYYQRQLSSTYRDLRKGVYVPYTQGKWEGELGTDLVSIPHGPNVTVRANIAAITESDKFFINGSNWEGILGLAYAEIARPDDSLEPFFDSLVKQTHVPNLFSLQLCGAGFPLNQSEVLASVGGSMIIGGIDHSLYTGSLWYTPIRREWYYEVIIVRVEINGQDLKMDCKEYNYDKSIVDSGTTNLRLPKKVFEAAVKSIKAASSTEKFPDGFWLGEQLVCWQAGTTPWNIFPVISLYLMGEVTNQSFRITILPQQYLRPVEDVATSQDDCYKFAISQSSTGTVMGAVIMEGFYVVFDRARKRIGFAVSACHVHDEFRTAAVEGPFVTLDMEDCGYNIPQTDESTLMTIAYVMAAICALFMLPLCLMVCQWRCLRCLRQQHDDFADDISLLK
UniProt P03023, sequence (whole entry, unmodified, looked up): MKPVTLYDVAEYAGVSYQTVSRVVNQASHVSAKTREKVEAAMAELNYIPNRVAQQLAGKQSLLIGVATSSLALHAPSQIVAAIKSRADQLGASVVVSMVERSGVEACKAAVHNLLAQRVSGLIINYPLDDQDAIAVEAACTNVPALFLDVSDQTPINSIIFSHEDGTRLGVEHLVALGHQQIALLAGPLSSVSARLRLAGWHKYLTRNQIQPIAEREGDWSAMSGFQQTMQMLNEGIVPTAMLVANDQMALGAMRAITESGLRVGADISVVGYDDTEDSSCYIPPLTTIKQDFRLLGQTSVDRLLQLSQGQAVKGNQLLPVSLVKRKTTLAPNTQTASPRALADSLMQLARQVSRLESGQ

Structure (SMILES)	target	assay	system	setting	IC50 [µM]
O=C(Cc1ccccc1)N[C@H](C(=O)O)[C@@H]1N=C(C(=O)O)C(CSC(C(=O)O)c2ccccc2)CS1 (some centres unmarked)	Metallo-beta-lactamase type 2 (Serratia marcescens, UniProt P52699)	enzyme activity, inhibitor		together with: nitrocefin	0.54 ± 0.02
CCN(CC)CCCC(C)Nc1ccnc2cc(Cl)ccc12 (centres unmarked)	SLC22A2 (Homo sapiens, UniProt O15244)	transport activity, inhibitor		10 (unit not given), together with: metformin	103 ± 45.7
CC(C)C[C@H](NC(=O)[C@@H](N)CCC(=O)O)C(=O)N1CCC[C@H]1C(=O)N[C@@H](CC(=O)O)C(=O)N[C@@H](CCC(=O)O)C(=O)N[C@@H](Cc1ccccc1)C(=O)N[C@H](C(=O)N[C@H](C(=O)N[C@H](C(=O)N[C@H](C(=O)N[C@H](C(=O)O)C(C)C)[C@@H](C)O)C(C)C)C(C)C)C(C)C	HLA class I histocompatibility antigen, A alpha chain allele A*02:01	peptide-MHC binding, radioligand competition binding			0.0016
C[C@H]1COCCN1c1nc(NCc2cccnc2C(F)(F)F)c2cccnc2n1	human GABA receptor				> 100
CC[C@H](C)[C@H](NC(=O)[C@H](CCCNC(=N)N)NC(=O)[C@@H]1CCCN1C(=O)[C@H](C)N)C(=O)N[C@H](C(=O)N[C@@H](Cc1ccccc1)C(=O)NCC(=O)NCC(=O)N1CCC[C@H]1C(=O)O)[C@@H](C)O	HLA class I histocompatibility antigen, A alpha chain allele A*02:01	peptide-MHC binding, radioligand competition binding			0.893
CC[C@H](C)[C@H](NC(=O)[C@@H](N)CCCNC(=N)N)C(=O)N[C@@H](Cc1ccc(O)cc1)C(=O)NCC(=O)N1CCC[C@H]1C(=O)N1CCC[C@H]1C(=O)N[C@@H](Cc1c[nH]cn1)C(=O)N[C@@H](CCC(N)=O)C(=O)N[C@@H](Cc1ccccc1)C(=O)O	HLA class I histocompatibility antigen, A alpha chain allele A*02:01	binding			5.75
O=CCc1ccccc1	uncharacterized protein (Drosophila suzukii, UniProt A0AB39ZGK5)	binding, bis-ANS competition fluorescence		pH 7.4, together with: bis-ANS	> 50
CSCC[C@H](NC(=O)[C@@H](N)CCCCN)C(=O)N[C@@H](Cc1ccc(O)cc1)C(=O)N1CCC[C@H]1C(=O)N[C@H](C(=O)NCC(=O)N[C@@H](Cc1ccccc1)C(=O)N[C@H](C(=O)N[C@@H](Cc1ccc(O)cc1)C(=O)O)[C@@H](C)O)[C@@H](C)O	HLA class I histocompatibility antigen, A alpha chain allele A*24:02	binding			33
O=C(Nc1ccccc1-c1ccc(Cl)cc1)c1cccnc1Cl	succinate dehydrogenase (Botrytis cinerea, UniProt A0A384J5E4+D2IH01+D2IH03)	enzyme activity, inhibitor, DCPIP reduction	Botrytis cinerea, mitochondrial fraction		0.00554
CC(C)[C@H](NC(=O)[C@H](Cc1c[nH]cn1)NC(=O)[C@@H]1CCCN1C(=O)[C@H](Cc1ccccc1)NC(=O)[C@H](C)NC(=O)[C@@H](N)Cc1c[nH]cn1)C(=O)N[C@H](C(=O)N[C@H](C(=O)N[C@@H](Cc1ccccc1)C(=O)O)[C@@H](C)O)C(C)C	HLA class I histocompatibility antigen, A alpha chain allele A*24:02	binding			5.45
NC(=O)CC[C@@H]1NC(=O)[C@H](Cc2ccccc2)NC(=O)[C@H](Cc2ccc(O)cc2)NC(=O)[C@@H](N)CSSC[C@@H](C(=O)N2CCC[C@H]2C(=O)N[C@@H](CCCN=C(N)N)C(=O)NCC(N)=O)NC(=O)[C@H](CC(N)=O)NC1=O	Oxytocin receptor (Macaca mulatta, UniProt P56494)	membrane hyperpolarisation, FMP blue membrane potential dye	CHO cells		0.0166
COc1cc(C2=CCCCc3c2ccc(OC)c3OC(=O)N(C)CCN(C)C(=O)OCc2ccc(NC(=O)[C@H](CCCNC(N)=O)NC(=O)[C@@H](NC(=O)CCCCCN3C(=O)C=CC3=O)C(C)C)cc2)cc(OC)c1OC	Tubulin alpha-1B chain/TUBB2B	tubulin polymerization, inhibitor		bovine protein	3.5 ± 0.2
CSCC[C@H](NC(=O)[C@H](C)N)C(=O)N[C@@H](Cc1ccc(O)cc1)C(=O)NCC(=O)N[C@@H](CCCNC(=N)N)C(=O)N[C@@H](CO)C(=O)N[C@@H](CC(C)C)C(=O)N[C@@H](CCC(N)=O)C(=O)N[C@@H](Cc1ccccc1)C(=O)O	HLA class I histocompatibility antigen, A alpha chain allele A*02:01	binding			0.952
Nc1c2c(nc3c1C(c1ccc(Cl)c(Cl)c1)c1ccc(OCC(=O)c4ccccc4)cc1O3)CCCC2 (centres unmarked)	Beta-secretase 1 (BACE1, Homo sapiens, UniProt P56817)	enzyme activity, inhibitor			2.12
C[C@H]1CN(c2n[nH]c3nc(N[C@H]4CC[C@H](NS(=O)(=O)CCC(F)(F)F)CC4)ncc23)CCO1	Neurofilament medium polypeptide (Homo sapiens, UniProt P07197)	biochemical			≥ 20
CSCC[C@H](NC(=O)[C@H](Cc1ccccc1)NC(=O)CNC(=O)CNC(=O)[C@H](Cc1ccc(O)cc1)NC(=O)[C@@H](N)CCCNC(=N)N)C(=O)O	rat neuron-specific aminopeptidase	enzyme activity, inhibitor			5
COc1ncccc1-c1cnn2ccc(N3CCN(C(=O)OC(C)C)CC3)nc12	ADRA1D (Homo sapiens, UniProt P25100)	liability screen			> 30
CCc1ccc(-c2ccc3c(C(=O)c4cc(OC)c(OC)c(OC)c4)c[nH]c3c2)cc1	Tubulin alpha-1B chain/TUBB2B	tubulin polymerization, inhibitor, turbidimetric		together with: 10 µM bovine tubulin	> 20
CSCC[C@H](NC(=O)[C@@H](N)CCCNC(=N)N)C(=O)N[C@@H](Cc1ccccc1)C(=O)NCC(=O)N1CCC[C@H]1C(=O)N[C@H](C(=O)N[C@@H](CCC(N)=O)C(=O)N[C@H](C(=O)N[C@@H](Cc1ccc(O)cc1)C(=O)O)[C@@H](C)O)C(C)C	HLA class I histocompatibility antigen, A alpha chain allele A*02:01	binding			16.6
O=P(O)(O)Oc1cc(OP(=O)(O)O)cc(-c2c(OP(=O)(O)O)cc(OP(=O)(O)O)cc2OP(=O)(O)O)c1	Type II inositol 1,4,5-trisphosphate 5-phosphatase (Homo sapiens, UniProt P32019)	enzyme activity, inhibitor, malachite green phosphate		5 min, 30 °C, together with: Ins(1,4,5)P3 50 µM	2.4 ± 0.3
O=[N+]([O-])c1ccc(O)c(Cc2cc([N+](=O)[O-])ccc2O)c1	ADP/ATP translocase 2 (Homo sapiens, UniProt P05141)	ADP/ATP exchange, inhibitor	yeast mitochondria	isoform ANT2	4.1
CC[C@H](C)[C@H](NC(=O)[C@H](Cc1c[nH]cn1)NC(=O)CNC(=O)[C@H](Cc1ccc(O)cc1)NC(=O)[C@H](CCC(N)=O)NC(=O)[C@@H](N)Cc1c[nH]cn1)C(=O)N[C@@H](CC(C)C)C(=O)N[C@@H](CCC(N)=O)C(=O)N[C@@H](Cc1ccc(O)cc1)C(=O)O	HLA class I histocompatibility antigen, A alpha chain allele A*02:01	binding			16.6
O=C(NCCCCCCNC(=O)ON=C1CCCCC1)ON=C1CCCCC1	Faah (Rattus norvegicus, UniProt P97612)	inhibitor		together with: FP-biotin 1 µM	8.11
O=C(NCc1ccc(F)cc1)c1cccc(Nc2ccc(-c3ccccc3)nn2)c1	Anoctamin-1 (ANO1, Homo sapiens, UniProt Q5XXA6, del476-501)	inhibitor			41.9 ± 4.8
CC(C)[C@H](NC(=O)[C@@H](NC(=O)[C@@H](NC(=O)[C@@H](NC(=O)[C@@H](NC(=O)[C@H](Cc1ccccc1)NC(=O)[C@H](CCC(=O)O)NC(=O)[C@@H](N)CC(=O)O)C(C)C)C(C)C)C(C)C)[C@@H](C)O)C(=O)O	HLA class I histocompatibility antigen, A alpha chain allele A*02:01	peptide-MHC binding, radioligand competition binding			13
CC(C)C[C@H](NC(=O)[C@H](CCC(=O)O)NC(=O)[C@H](CC(C)C)NC(=O)[C@@H]1CCCN1C(=O)[C@H](CCCCN)NC(=O)[C@H](CO)NC(=O)[C@H](Cc1ccc(O)cc1)NC(=O)[C@@H](NC(=O)[C@@H](N)Cc1ccc(O)cc1)[C@@H](C)O)C(=O)O	HLA class I histocompatibility antigen, A alpha chain allele A*02:01	binding			0.11
COc1cc(Nc2ncc(F)c(Nc3ccc4c(n3)NC(=O)C(C)(C)O4)n2)cc(OC)c1OC	PTGDR (Homo sapiens, UniProt Q13258)				> 10
CC(C)[C@H](NC(=O)[C@@H](N)Cc1ccc(O)cc1)C(=O)N[C@@H](Cc1ccc(O)cc1)C(=O)N[C@@H](CCC(N)=O)C(=O)N[C@@H](Cc1c[nH]cn1)C(=O)N1CCC[C@H]1C(=O)N[C@@H](Cc1c[nH]cn1)C(=O)N[C@H](C(=O)N[C@@H](Cc1ccc(O)cc1)C(=O)O)[C@@H](C)O	HLA class I histocompatibility antigen, A alpha chain, allele A*01:01 (Homo sapiens, UniProt P04439)	binding			10.4
CC(C)S[C@@H]1O[C@H](CO)[C@H](O)[C@H](O)[C@H]1O	lacI (Escherichia coli, UniProt P03023, D149C/N125C)	inhibitor			6.2

Some of these lines once more:
Structure (SMILES)	target	assay	system	setting	IC50 [µM]
CSCC[C@H](NC(=O)[C@@H](N)CCCCN)C(=O)N[C@@H](Cc1ccc(O)cc1)C(=O)N1CCC[C@H]1C(=O)N[C@H](C(=O)NCC(=O)N[C@@H](Cc1ccccc1)C(=O)N[C@H](C(=O)N[C@@H](Cc1ccc(O)cc1)C(=O)O)[C@@H](C)O)[C@@H](C)O	HLA class I histocompatibility antigen, A alpha chain allele A*24:02	binding			33
O=C(Nc1ccccc1-c1ccc(Cl)cc1)c1cccnc1Cl	succinate dehydrogenase (Botrytis cinerea, UniProt A0A384J5E4+D2IH01+D2IH03)	enzyme activity, inhibitor, DCPIP reduction	Botrytis cinerea, mitochondrial fraction		0.00554
CC(C)[C@H](NC(=O)[C@H](Cc1c[nH]cn1)NC(=O)[C@@H]1CCCN1C(=O)[C@H](Cc1ccccc1)NC(=O)[C@H](C)NC(=O)[C@@H](N)Cc1c[nH]cn1)C(=O)N[C@H](C(=O)N[C@H](C(=O)N[C@@H](Cc1ccccc1)C(=O)O)[C@@H](C)O)C(C)C	HLA class I histocompatibility antigen, A alpha chain allele A*24:02	binding			5.45
NC(=O)CC[C@@H]1NC(=O)[C@H](Cc2ccccc2)NC(=O)[C@H](Cc2ccc(O)cc2)NC(=O)[C@@H](N)CSSC[C@@H](C(=O)N2CCC[C@H]2C(=O)N[C@@H](CCCN=C(N)N)C(=O)NCC(N)=O)NC(=O)[C@H](CC(N)=O)NC1=O	Oxytocin receptor (Macaca mulatta, UniProt P56494)	membrane hyperpolarisation, FMP blue membrane potential dye	CHO cells		0.0166
